Measured values collected from several papers.
Protocols differ between the studies behind these lines.
Target: Cytochrome P450 3A4 (CYP3A4, Homo sapiens, UniProt P08684)
Chain of UniProt P08684 (whole entry, looked up): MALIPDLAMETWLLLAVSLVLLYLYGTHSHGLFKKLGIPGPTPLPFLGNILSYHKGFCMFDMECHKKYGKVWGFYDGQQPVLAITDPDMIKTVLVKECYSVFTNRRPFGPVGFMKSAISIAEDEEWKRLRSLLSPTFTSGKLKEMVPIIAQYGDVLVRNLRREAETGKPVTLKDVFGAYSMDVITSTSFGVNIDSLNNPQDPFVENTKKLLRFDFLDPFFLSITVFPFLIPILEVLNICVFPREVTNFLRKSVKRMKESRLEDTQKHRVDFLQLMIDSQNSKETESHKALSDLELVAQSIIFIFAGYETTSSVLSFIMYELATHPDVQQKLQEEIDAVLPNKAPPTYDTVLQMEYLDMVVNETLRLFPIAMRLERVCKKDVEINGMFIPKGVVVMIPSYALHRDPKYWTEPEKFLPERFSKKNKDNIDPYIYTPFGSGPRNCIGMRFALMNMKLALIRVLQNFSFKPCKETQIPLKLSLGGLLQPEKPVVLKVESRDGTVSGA

COC1C(c2ccc(Cl)c(Cc3ccc(OC4CCOC4)cc3)c2)OC(CO)C(O)C1O (stereo not drawn)
inhibition (enzyme activity, inhibitor; human, liver microsomes; 10 µM, 10 min): < 1%

Cc1nc2ccc(S(=O)(=O)n3nc(SCc4ccc(Cl)cc4)nc3N)cc2s1
inhibition (enzyme activity, inhibitor; 10 µM): 89%

C=CC(=O)Nc1cc(Nc2nccc(-c3cn(C)c4ccccc34)n2)c(OCC(F)(F)F)nc1N(C)CCNC
contribution to metabolite formation (substrate; 3 µM, 60 min, 3A4 isoform, liver abundance-normalized): 79.2%

O=C(NS(=O)(=O)c1cccs1)c1cc2ccccc2n1Cc1ccc(Br)c2ccccc12
IC50 (inhibitor): > 30 µM

Nc1nc(SCc2ccc(Cl)cc2)nn1S(=O)(=O)c1ccc2c(c1)CCO2
inhibition (enzyme activity, inhibitor; 10 µM): 91%

N#Cc1cccc(N2CN(CC(=O)NCC(F)(F)F)C(=O)C23CCN(C(=O)c2cnc4[nH]ncc4c2)CC3)c1
IC50 (enzyme activity, inhibitor): > 50 µM

CNC(=O)C1CCCN(C(=O)C2CC3CCC2N3C(=O)[C@@H]2C[C@@H](O)CN2C(=O)NCc2cccc(Cl)c2F)C1 (mixture of isomers)
IC50 (inhibitor; human liver microsomes): > 50 µM

O=C(CN1CN(c2ccccc2)C2(CCN(C(=O)c3ccc4[nH]ncc4n3)CC2)C1=O)NCC(F)(F)F
IC50 (enzyme activity, inhibitor): > 50 µM

N#Cc1cc(NC(=O)C2c3ccccc3C(=O)N(CC(F)(F)F)C2c2cccnc2)ccc1F (racemic)
inhibition (enzyme activity, inhibitor; liver microsomes; 10 µM): 38%

Cn1cnnc1C1CCN(c2ncccc2-c2cccnc2)CC1
remaining compound (substrate, refers to: parent compound; 1 µM, 1 h): 93%

O=C(CN1CN(c2cccc(F)c2)C2(CCN(C(=O)c3cnc4[nH]ncc4c3)CC2)C1=O)NCC(F)(F)F
IC50 (enzyme activity, inhibitor): > 50 µM

Cc1[nH]nc2c1N=C(c1ccccc1Cl)c1cnc(N3CCOCC3)cc1N2
IC50 (enzyme activity, inhibitor; human liver microsomes; with: testosterone): 5.45 µM

C=C(NC(=O)c1csc(-c2nc3c(cc2O)-c2nc(cs2)C(=O)NC(C(C)O)C(=O)NC(=C(C)OC)c2nc(cs2)C(=O)NC2c4nc(cs4)C(=O)NC(COC(=O)c4c5c6c(cccc6n4O)COC(=O)C(OC4CC(C)(O)C(N(C)C)C(C)O4)C2OC5)c2nc-3cs2)n1)C(N)=O (stereo not drawn)
remaining activity (enzyme activity, inhibitor; up to 50 µM, pH 7.4): > 70%

O=C(CN1CN(c2ccccc2)C2(CCN(C(=O)c3ccc4[nH]ncc4c3)CC2)C1=O)Nc1ccccn1
IC50 (enzyme activity, inhibitor): > 50 µM

O=C(c1ccc(C23CC(S(F)(F)(F)(F)F)(CO2)C3)cc1)N1CCN(c2ncccn2)CC1
kobs (time-dependent inhibition, inhibitor): 0.012 min⁻¹

Some of these lines once more:
O=C(NS(=O)(=O)c1cccs1)c1cc2ccccc2n1Cc1ccc(Br)c2ccccc12
IC50 (inhibitor): > 30 µM
